Experimental data gathered from unrelated publications.
Compare with care: the assays were run in different laboratories. “And” joins repeats or separate records; there may be more than shown. ± marks the error that the study gave.
USP14: Ubiquitin carboxyl-terminal hydrolase 14 (USP14, Homo sapiens, UniProt P54578)
Gria2/Glutamate receptor 3: Gria2/Glutamate receptor 3 (Rattus norvegicus, UniProt P19491+P19492)
MAPK9: Mitogen-activated protein kinase 9 (MAPK9, Homo sapiens, UniProt P45984)
SLC6A9: Sodium- and chloride-dependent glycine transporter 1 (SLC6A9, Homo sapiens, UniProt P48067)

With `Cc1ncc2[nH]c(=O)n(-c3cnc(Oc4cccc5c4C(C)(C)CO5)c(Cl)c3C)c2n1` the maximal current was 44.9 ± 18.8% (Voltage-gated potassium channel KCNC1 (KCNC1, Homo sapiens, UniProt P48547); potassium current, activator, manual patch clamp; 10 µM, test pulse -60 mV; baseline: control).
With `Nc1ncc2c(n1)-c1c([nH]c3ccc(C4=CCOCC4)cc13)CCC2` the remaining binding was 100% (Tyrosine-protein kinase ABL1, phosphorylated (ABL1, Homo sapiens, UniProt P00519, F317I); binding, competition with immobilised ligand; 1 µM).
`CCCCCC(O)/C=C/C=O` (stereo not drawn) — result for “isoTOP-ABPP competition ratio”: 1.8 (Large ribosomal subunit protein uL4 (Homo sapiens, UniProt P36578); competitive isoTOP-ABPP, refers to: RPL4 cysteine peptide; proteome, soluble, MDA-MB-231; 100 µM, with: iodoacetamide probe; baseline: DMSO over compound-treated, higher = stronger cysteine blockade).
`CC(C(=O)O)N1C(=O)C(=Cc2ccco2)SC1=S` (stereo not drawn) has an inhibition of 17% (USP14; enzyme activity, inhibitor; 17 µM).
`Cc1ncc(CNc2nc(N3CC(CCOc4cc(-c5scnc5C)ccc4CNC(=O)[C@@H]4C[C@@H](O)CN4C(=O)[C@@H](NC(=O)C4(F)CC4)C(C)(C)C)C3)nc(N3CCC[C@H]3Cn3ccnn3)n2)c(N)n1`: “ternary complex formation” 16% (VHL/BRD9, with Elongin B/C (Homo sapiens, UniProt P40337+Q9H8M2); native mass spectrometry; 5 µM, with: BRD9 and VCB at 5 µM; baseline: unbound BRD9).
`O=C(O)Cc1cc2c(cc1C(=O)c1ccc(Cl)cc1Cl)OCO2` — result for “current amplitude ratio”: 9.17 ± 0.6 (Gria2/Glutamate receptor 3; glutamate-evoked current, whole-cell patch clamp; HEK-293T; concentration not given; baseline: glutamate alone).
`COC(=O)[C@@]1(C)C=C(C(=O)Nc2cccc(C(=O)Nc3ccc(Nc4nccc(-c5cccnc5)n4)c(C)c3)c2)C(=O)CC1` has a remaining activity of 0.118 (MAPK9; enzyme activity, inhibitor; 4.938 µM, unit not given; baseline: vehicle).
For `CCCCCCCCCCCCCCCC(=O)NCCCC[C@H](NC(=O)[C@H](CCC(=O)O)NC(=O)[C@H](Cc1ccc(O)cc1)NC(=O)[C@H](CCC(=O)O)NC(=O)COCC(=O)NCCCOCCOCCOCCCNC(=O)[C@H](Cc1c[nH]c2ccccc12)NC(=O)[C@H](CCCCN)NC(=O)[C@H](C)NC(=O)[C@H](CCCCNC(=N)N)NC(=O)[C@H](CCC(N)=O)NC(=O)[C@H](Cc1c[nH]cn1)NC(=O)[C@H](CCSC)NC(=O)[C@H](CC(C)C)NC(=O)[C@H](CCC(N)=O)NC(=O)[C@@H](NC(=O)[C@H](CCC(=O)O)NC(=O)C(C)(C)NC(=O)[C@@H](NC(=O)C(C)(C)N)C(C)C)[C@@H](C)CC)C(=O)N[C@@H](CCC(=O)O)C(=O)N[C@@H](Cc1ccc(O)cc1)C(=O)N[C@@H](CCC(=O)O)C(N)=O`, “cAMP luminescence AUC” read 80.1 a.u. (Parathyroid hormone/parathyroid hormone-related peptide receptor (PTH1R, Homo sapiens, UniProt Q03431); agonist; Saos-2 with cAMP reporter; 100 nM, 30 min, ligand-on phase; higher = more cAMP).
With `CC(C)Oc1cc(Cl)ccc1CNc1cc(-c2ccccc2)nc2ncnn12` the cAMP luminescence was 39800 a.u. and 36800 a.u. and 55500 a.u. and 38200 a.u. (G-protein coupled receptor 3 (GPR3, Homo sapiens, UniProt P46089, I200W); cAMP GloSensor; human cells; 10 pM; higher is more cAMP).
The remaining protein of `Cn1c(=O)n(C2CCC(=O)NC2=O)c2ccc(C3CCN(CC(=O)Nc4cccc(CS(=O)(=O)N5CC[C@H](Nc6cccc(-c7sc(C(=O)O)c(OCC(=O)O)c7Cl)c6)CC5(C)C)c4)CC3)cc21` (stereo partly drawn) is reported as 110% and 96.1% (Tyrosine-protein phosphatase non-receptor type 2 (Ptpn2, Mus musculus, UniProt Q06180); degrader, Western blot; B16-F10; 0.0001 µM).
For `CN1CCN(S(=O)(=O)c2cccc(-c3ccc4ncnc(Nc5ccc(OCc6cccc(F)c6)c(Cl)c5)c4c3)c2)CC1`, the EC50 was 1.2 µM (Leishmania major; intracellular amastigote growth, luciferase; RAW264.7 macrophages).
With `Cc1cc(N)n(N)c(=O)c1` the inhibition was 36% (USP14; enzyme activity, inhibitor; 17 µM).
With `COc1cc(Nc2nc(C)cc(-c3cnn4nc(OC)ccc34)n2)cc(C(F)(F)F)c1` the remaining activity was 66% (Phosphatidylinositol 4,5-bisphosphate 3-kinase catalytic subunit alpha isoform (PIK3CA, Homo sapiens, UniProt P42336, Q546K); inhibitor; 1 µM; baseline: control).
With `C#CCOC(=O)[C@@]1(C)C=C(C(=O)Nc2cccc(C(=O)Nc3ccc(C)c(Nc4nccc(-c5cccnc5)n4)c3)c2)C(=O)CC1` the remaining activity was 1.01 (MAPK9; enzyme activity, inhibitor; 8.363e-05 µM, unit not given; baseline: vehicle).
For `CCn1cc(-c2cccc(C(F)(F)F)c2)c2sc(C(=N)NC3CCS(=O)(=O)CC3)cc2c1=O`, the ΔTm was 7.4 °C (Histone acetyltransferase p300 (EP300, Homo sapiens, UniProt Q09472)).
The tissue uptake of `CC(C)C[C@@H](NC(=O)[C@@H](CC(C)C)NC(=O)[C@@H](CC(=O)O)NC(=O)[C@@H](CC(C)C)NC(=O)[C@@H](CC(C)C)NC(=O)[C@@H](CC(C)C)NC(=O)[C@H](NC(=O)[C@@H](CC(=O)O)NC(=O)[C@H](NC(=O)[C@H]1CCCN1C(=O)[C@@H](Cc1ccccc1)NC(=O)[C@@H](CC(C)C)NC(=O)[C@@H](CC(C)C)NC(=O)[C@@H](CC(=O)O)NC(=O)[C@@H](CC(C)C)NC(=O)[C@@H](Cc1ccc(O)cc1)NC(=O)[C@@H](C)NC(=O)[C@@H](CCCNC(=N)N)NC(=O)[C@@H](Cc1c[nH]c2ccccc12)NC(=O)[C@H]1CCCN1C(=O)[C@@H](CC(N)=O)NC(=O)[C@@H](CCC(N)=O)NC(=O)[C@@H](CC(=O)O)NC(=O)[C@@H](CC(=O)O)NC(=O)[C@@H](CSC1CC(=O)N(CCNC(=O)CN2CCN(CC(=O)O)CCN(CC(=O)O)CC2)C1=O)NC(=O)[C@@H](C)N)[C@H](C)O)[C@H](C)O)C(=O)N[C@H](Cc1c[nH]c2ccccc12)C(=O)O` (stereo partly drawn) [copper-64 labelled] is reported as 11.6 %ID/g (C57BL/6 mice, female, B16-F10 melanoma, tumor; intravenous, 12 h).
`Fc1cccc(COc2ccc(Nc3ncnc4ccc(-c5ccc(N6CCCCC6)cc5)cc34)cc2Cl)c1` gave an EC50 of 5 µM (Leishmania major; intracellular amastigote growth, luciferase; RAW264.7 macrophages).
The -TΔS of `CC[C@H](C)[C@H](NC(=O)[C@@H](NC(=O)[C@@H](NC(=O)[C@@H](NC(=O)[C@H](CCCNC(=N)N)NC(=O)[C@H](CCC(=O)O)NC(=O)[C@H](CCC(=O)O)NC(=O)[C@H](C)NC(=O)[C@H](CCC(=O)O)NC(=O)CNC(=O)[C@H](C)NC(=O)CN)C(C)C)C(C)C)C(C)C)C(=O)N[C@@H](CO)C(=O)N[C@@H](CO)C(=O)N[C@@H](CO)C(=O)N[C@@H](CCC(=O)O)C(=O)N[C@@H](CC(=O)O)C(=O)N[C@@H](CO)C(=O)N[C@@H](CC(=O)O)C(=O)N[C@@H](C)C(=O)N[C@@H](CCC(=O)O)C(=O)N[C@@H](CC(N)=O)C(=O)N[C@@H](CO)C(=O)N[C@@H](CO)C(=O)N[C@@H](CO)C(=O)N[C@@H](CCCNC(=N)N)C(=O)N[C@@H](Cc1ccc(O)cc1)C(=O)O` is reported as -6.45 ± 0.1 kcal/mol (Small ubiquitin-related modifier 1 (Homo sapiens, UniProt P63165, C52A); isothermal titration calorimetry; pH 7.4, SUMO1 construct).
`Cc1cc(=O)oc2cc(NC(=O)CCCCCCC(=O)NO)ccc12` gave a TΔS of 3.1 kcal/mol (Histone deacetylase 8 (HDAC8, Homo sapiens, UniProt Q9BY41); ITC; triethanolamine buffer; pH 7.5).
`O=C(N/N=C/c1cc[n+](CC2CC2)c2ccccc12)N/N=C/c1cc[n+](CC2CC2)c2ccccc12` has a ΔTm of 0.5 ± 0.2 °C (hp2 hairpin duplex DNA; FRET melting; 1 µM, with: ds26 10 µM).
`N[C@H]1CC[C@H](Nc2nccc(-c3cccnc3Oc3ccc(NC(=O)NC4CC4)c4ccccc34)n2)CC1` — result for “log2 LFQ intensity”: 29 and 28.9 and 28.8 and 29.1 (5'-AMP-activated protein kinase subunit beta-1 (PRKAB1, Homo sapiens, UniProt Q9Y478); kinobead competition pulldown; HEK293/HCT116 lysate mixture; 10 µM, 1 h, 4 °C; lower = stronger competition).
For `CCCC[C@H](NC(=O)[C@H](CCC(N)=O)NC(=O)[C@H](CCC(=O)O)NC(=O)[C@@H]1CCCN1C(=O)[C@@H](NC(=O)[C@H](C)NC(=O)[C@H](CC(N)=O)NC(=O)[C@H](CC(=O)O)NC(=O)CNC(=O)[C@@H]1CCCN1C(=O)[C@H](Cc1ccc(O)cc1)NC(=O)[C@@H](NC(=O)[C@@H]1CCCN1C(=O)[C@H](CCC(=O)O)NC(=O)[C@H](CC(C)C)NC(=O)[C@@H]1CCCN1C(=O)[C@H](C)N)C(C)C)[C@@H](C)O)C(=O)N[C@@H](C)C(=O)N[C@@H](CCC(N)=O)C(=O)N[C@@H](Cc1ccc(O)cc1)C(=O)N[C@@H](C)C(=O)N[C@@H](CCCCNC(=O)c1ccc2c(c1)C(=O)OC21c2ccc(N(C)C)cc2Oc2cc(N(C)C)ccc21)C(=O)N[C@@H](CC(=O)O)C(=O)N[C@@H](CC(C)C)C(=O)N[C@@H](CCCNC(=N)N)C(=O)N[C@@H](CCCNC(=N)N)C(=O)N[C@@H](Cc1ccc(O)cc1)C(=O)N[C@H](C(=O)N[C@@H](CC(N)=O)C(=O)N[C@@H](CCCC)C(=O)N[C@@H](CC(C)C)C(=O)N[C@H](C(=O)N[C@@H](CCCNC(=N)N)C(=O)N1CCC[C@H]1C(=O)N[C@@H](CCCNC(=N)N)C(=O)N[C@@H](Cc1ccc(O)cc1)C(N)=O)[C@@H](C)O)[C@@H](C)CC`, the BRETmax was 0.051 ± 0.0016 (Neuropeptide Y receptor type 4 (NPY4R, Homo sapiens, UniProt P50391, L192A); NanoBRET binding; Nluc-tagged receptor L192A, unit not given; net BRET ratio).
`C[n+]1cccc2cc(/C=N/NC(=O)c3cncc(C(=O)N/N=C/c4ccc5c(ccc[n+]5C)c4)n3)ccc21` gave a ΔTm of 0.9 °C (hp2 hairpin duplex DNA; FRET melting; 1 µM, with: ds26 10 µM).
The remaining signal of `NC(CNCCC=C(c1ccccc1)c1ccccc1)C(=O)O` (racemic) is reported as 39% (SLC6A9; cell-free assay; 10 µM).
The selectivity ratio of `O[C@@H]1Cc2cccc(OCCF)c2C[C@H]1N1CCC(c2ccccc2)CC1` is reported as 0.91 (Sigma non-opioid intracellular receptor 1 (SIGMAR1, Homo sapiens, UniProt Q99720); rat liver (sigma2), human sigma1; baseline: Ki sigma2 over Ki sigma1).
For `O=C(O)Cc1cc2c(cc1C(=O)c1cccc(Br)c1)OCO2`, “current amplitude ratio” read 5.16 ± 0.3 (Gria2/Glutamate receptor 3; glutamate-evoked current, whole-cell patch clamp; HEK-293T; concentration not given; baseline: glutamate alone).
The remaining signal of `CCOC(=O)C1CCCN(CCOC(CNCCC(=O)O)(c2ccc(OC)cc2)c2ccc(OC)cc2)C1` (stereo not drawn) is reported as 86.1% (SLC6A9; cell-free assay; 1 µM).

Repeated from above:
The tissue uptake of `CC(C)C[C@@H](NC(=O)[C@@H](CC(C)C)NC(=O)[C@@H](CC(=O)O)NC(=O)[C@@H](CC(C)C)NC(=O)[C@@H](CC(C)C)NC(=O)[C@@H](CC(C)C)NC(=O)[C@H](NC(=O)[C@@H](CC(=O)O)NC(=O)[C@H](NC(=O)[C@H]1CCCN1C(=O)[C@@H](Cc1ccccc1)NC(=O)[C@@H](CC(C)C)NC(=O)[C@@H](CC(C)C)NC(=O)[C@@H](CC(=O)O)NC(=O)[C@@H](CC(C)C)NC(=O)[C@@H](Cc1ccc(O)cc1)NC(=O)[C@@H](C)NC(=O)[C@@H](CCCNC(=N)N)NC(=O)[C@@H](Cc1c[nH]c2ccccc12)NC(=O)[C@H]1CCCN1C(=O)[C@@H](CC(N)=O)NC(=O)[C@@H](CCC(N)=O)NC(=O)[C@@H](CC(=O)O)NC(=O)[C@@H](CC(=O)O)NC(=O)[C@@H](CSC1CC(=O)N(CCNC(=O)CN2CCN(CC(=O)O)CCN(CC(=O)O)CC2)C1=O)NC(=O)[C@@H](C)N)[C@H](C)O)[C@H](C)O)C(=O)N[C@H](Cc1c[nH]c2ccccc12)C(=O)O` (stereo partly drawn) [copper-64 labelled] is reported as 11.6 %ID/g (C57BL/6 mice, female, B16-F10 melanoma, tumor; intravenous, 12 h).
`O=C(N/N=C/c1cc[n+](CC2CC2)c2ccccc12)N/N=C/c1cc[n+](CC2CC2)c2ccccc12` has a ΔTm of 0.5 ± 0.2 °C (hp2 hairpin duplex DNA; FRET melting; 1 µM, with: ds26 10 µM).
With `Nc1ncc2c(n1)-c1c([nH]c3ccc(C4=CCOCC4)cc13)CCC2` the remaining binding was 100% (Tyrosine-protein kinase ABL1, phosphorylated (ABL1, Homo sapiens, UniProt P00519, F317I); binding, competition with immobilised ligand; 1 µM).
